# Assay results from different studies.
# Compare with care: the assays were run in different laboratories.
SMILES,test,system,setting,hepatic clearance [mL/min/kg]
c1ccc2c(c1)ccc1c3ccccc3ccc21,,"developing zebrafish, liver",,8610
OCc1nc2ccc(NCc3ccc(C(F)(F)F)cc3)cc2[nH]1,,human liver S9,"1 µM, pH 7.4",6.33
COc1cc(-c2cc(C(C)=O)n3ccccc23)c(OC)cc1Cn1ccnc1,,rat liver microsomes,"1 µM, pH 7.4",55.5
CN1CCN(C(=O)c2ccc([C@H]3[C@@H](F)[C@@H](F)C[C@@H](F)[C@H]3F)cc2)CC1=O,liver microsome stability,cynomolgus liver microsomes,1 µM,4.9
O=C1CC[C@H](N2Cc3cc(N4CCN(CC5CCN(c6ccc([C@@H]7c8ccc(O)cc8CC[C@@H]7c7ccccc7)cc6)CC5)CC4)ccc3C2=O)C(=O)N1,,cryopreserved Sprague-Dawley rat hepatocytes,"1 µM, corrected for fu",13.7
O=C(Nc1ccc(C2CCCCC2)cc1)c1cn[nH]c1,,cryopreserved mouse hepatocytes,1 µM,52
c1ccc2c(c1)ccc1ccccc12,,"developing zebrafish, liver",,134
O=C(c1ccc(F)cc1)C1CCN(CCn2c(=O)[nH]c3ccccc3c2=O)CC1,,monkey liver microsomes,,26.5
CN1CCN(C(=O)c2ccc(C3CCCCC3)cc2)CC1=O,hepatocyte stability,cryopreserved rat hepatocytes,1 µM,44

# Some of these lines once more:
SMILES,test,system,setting,hepatic clearance [mL/min/kg]
OCc1nc2ccc(NCc3ccc(C(F)(F)F)cc3)cc2[nH]1,,human liver S9,"1 µM, pH 7.4",6.33
